Measurements of several laboratories.
Each numbered part is a random draw from the data of one study; scales do not carry over between parts. Substitutions count along the parent as printed.

Block 1
Target: Interferon regulatory factor 3, full length, phosphomimetic (IRF3, Homo sapiens, UniProt Q14653, residues 1-427, S386D/S396D/S398D/S402D/T404D/S405D)
Technique: protein-binding microarray
Form: double-stranded DNA, one strand shown
Medium: in vitro
Concentration: 2540 nM top
Notes: 60-bp whole probe
Added: salmon DNA 0.4 mg/ml
Baseline: random background probes
Reading: higher = stronger binding
Shared flanks, not repeated: GCCTAGCAC … GTCTTGATTCGCTTGACGCTGCTG
Residues (chain): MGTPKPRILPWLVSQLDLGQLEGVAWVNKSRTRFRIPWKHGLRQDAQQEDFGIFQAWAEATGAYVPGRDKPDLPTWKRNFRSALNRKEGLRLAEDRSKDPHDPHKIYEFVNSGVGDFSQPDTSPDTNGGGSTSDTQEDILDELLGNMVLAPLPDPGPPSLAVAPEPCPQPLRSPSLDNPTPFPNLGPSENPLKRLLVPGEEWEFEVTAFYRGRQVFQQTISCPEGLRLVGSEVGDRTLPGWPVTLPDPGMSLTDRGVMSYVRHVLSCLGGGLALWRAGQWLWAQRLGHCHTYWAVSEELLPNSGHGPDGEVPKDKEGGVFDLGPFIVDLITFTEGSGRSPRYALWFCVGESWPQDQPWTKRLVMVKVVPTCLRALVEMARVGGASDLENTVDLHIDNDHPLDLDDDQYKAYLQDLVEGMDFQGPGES
| Oligonucleotide | fitted relative affinity [z-score] |
| --- | --- |
| AACGGACTGCTACTGCTGACGTGCTAG | -0.612 |
| GACGGTATCGGATATCGGGACGTGCTA | 2.87 |
| GATGATTTCGGGTTTCGAGACGTGCTA | 2.55 |
| TTAGCTTTCGGGTATCGGTTAGTGCTA | 2.2 |
| CACGGTTTCGGGTATCGGGACGTGCTA | 4.09 |
| TCATGTCCCTATTTAAGACTGTGCTAG | 1.56 |
| TTAGGTTTCGATCTCGGTTAGTGCTAG | 7.59 |
| GTTGAGTTCTGTTGCAAAGGGTGCTAG | -0.201 |
| GACGCACTGCTTCTCCTGACGTGCTAG | -0.353 |
| GCCGGTTTCGGTATCGGGACGTGCTAG | 8.46 |
| GACGAATTCAGTATCGAGACGTGCTAG | 1.18 |
| CGGATGATCTCTCTGGGCAAGTGCTAG | 0.0102 |
| TCTGTTTTCGCTTTCTTTAAGTGCTAG | 4.74 |
| TCAAGTATTTTTTTCCAACTGTGCTAG | 0.791 |
| TTAGGTCTAGGTATCGGTTAGTGCTAG | 1.07 |
| TTAGGTCTCGGTCTCGGTAAGTGCTAG | 1.31 |
| GTCTGTTTCCTCTTTCTTTGGTGCTAG | 5.19 |
| TTAGGTATGGGTTTCGGTTAGTGCTAG | 3.18 |

Block 2
Target: Sal-like protein 4, full length isoform B (SALL4, Homo sapiens, UniProt Q9UJQ4-2, residues 1-616)
Technique: universal PBM
Form: double-stranded DNA, one strand shown
Medium: in vitro
Concentration: not given
Notes: 8-mer, flanks averaged, mean of replicates
Reading: higher = stronger binding
| Oligonucleotide | E-score |
| --- | --- |
| CTGACAGC | -0.316 |
| ACTATCGA | 0.0291 |
| AACGAAAG | -0.0044 |
| GTAACGAA | 0.164 |
| GGAACTCA | -0.0568 |
| ACAACAAC | 0.118 |
| CTCAAACC | -0.184 |
| CCTCCACG | -0.128 |
| CAAGAAGC | 0.056 |
| AGCGTAAT | 0.17 |
| ACCGGCCC | -0.337 |
| GCCAATAC | -0.0288 |
| CCATCCAA | 0.0262 |
| AAACGACC | -0.136 |
| CCACCTAC | 0.0274 |
| GTACGCCA | -0.244 |
| CGTTCAAG | -0.0666 |
| CCGGCTTA | -0.209 |
| GCCCCCGC | -0.352 |
| ATTTTAGC | 0.158 |
| CACGTCTC | -0.093 |
| CATAGACG | 0.12 |
| ATTCTACG | 0.0175 |

Block 3
Target: CCNE1, cyclin fold, Cln2 fusion (human)
Technique: yeast growth competition, sequencing
Medium: yeast
Notes: weak parent motif
Baseline: not given
Reading: higher = stronger binding
Starting sequence: ORC1 docking peptide (human); PRARKRLELGNLG
| Variant | normalised enrichment score |
| --- | --- |
| PRCRKRLELGNLG [A3C] | 0.925 |
| PRARQRLELGNLG [K5Q] | -0.261 |
| WRARKRLELGNLG [P1W] | 1.26 |
| PRARKRLWLGNLG [E8W] | 1.3 |
| PRFRKRLELGNLG [A3F] | 0.138 |
| YRARKRLELGNLG [P1Y] | -0.0972 |
| PRAFKRLELGNLG [R4F] | -0.201 |
| PRARKRLEFGNLG [L9F] | 2.25 |
| ERARKRLELGNLG [P1E] | 0.782 |
| PRARTRLELGNLG [K5T] | 0.33 |
| PRARKRLETGNLG [L9T] | 0.22 |
| PRARKQLELGNLG [R6Q] | 0.522 |
| PRIRKRLELGNLG [A3I] | -0.631 |
| SRARKRLELGNLG [P1S] | -0.0666 |
| PRARKRLELGNLQ [G13Q] | 0.097 |
| PRAMKRLELGNLG [R4M] | 0.0914 |
| PMARKRLELGNLG [R2M] | 0.56 |
| PRARKDLELGNLG [R6D] | 0.337 |
| PRARKRLELQNLG [G10Q] | -0.429 |
| PRGRKRLELGNLG [A3G] | -0.595 |
| PRARKRLELGDLG [N11D] | 0.128 |
| PRARKRLSLGNLG [E8S] | 0.41 |
| HRARKRLELGNLG [P1H] | 0.357 |
| NRARKRLELGNLG [P1N] | 1.24 |
| PSARKRLELGNLG [R2S] | 0.0602 |

Block 4
Target: ABI1, truncated, D143A, DHFR fusion (Arabidopsis thaliana)
Technique: DHFR PCA, deep sequencing
Medium: yeast
Notes: methotrexate growth selection, single substitutions
Added: (+)-ABA 200 µM
Baseline: wild-type fitted maximum
Reading: higher = stronger binding
Starting sequence: PYL1, truncated, DHFR fusion (Arabidopsis thaliana); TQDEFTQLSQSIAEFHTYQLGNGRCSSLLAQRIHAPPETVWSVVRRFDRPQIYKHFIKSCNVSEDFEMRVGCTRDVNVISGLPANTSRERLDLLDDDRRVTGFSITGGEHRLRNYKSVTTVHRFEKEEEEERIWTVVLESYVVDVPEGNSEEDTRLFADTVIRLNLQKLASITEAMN
| Variant | relative binding score |
| --- | --- |
| E125L | 101% |
| Q7T | 96.4% |
| L138S | 8.15% |
| D48S | 73% |
| L8W | 100% |
| V62N | 54.9% |
| E147D | 101% |
| W41M | 9.85% |
| Q167K | 104% |
| I33Y | -4.34% |
| K54N | 16.7% |
| M176P | 96.3% |

Block 5
Target: CREBL2, bZIP domain (human)
Technique: DHFR protein complementation
Medium: yeast
Notes: single substitutions, most at no-binding floor
Baseline: wild-type JUN-FOS pair
Reading: higher = stronger binding
Starting sequence: JUN, bZIP domain (human); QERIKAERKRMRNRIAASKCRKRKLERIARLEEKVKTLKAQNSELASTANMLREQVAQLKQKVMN; partner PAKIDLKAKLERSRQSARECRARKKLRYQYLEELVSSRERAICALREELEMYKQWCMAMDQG
| Variant | binding fitness |
| --- | --- |
| A46V | -1.41 natural log |
| M51L | -1.48 natural log |
| T48G | -1.52 natural log |
| K36W | -1.55 natural log |
| K34C | -0.925 natural log |
| A46D | -1.46 natural log |
| E44I | -1.24 natural log |
| E32D | -1.15 natural log |
| E44M | -1.4 natural log |
| E54H | -1.5 natural log |
| S43L | -1.49 natural log |
| L45N | -1.5 natural log |
| R53W | -1.42 natural log |
| L38E | -1.54 natural log |
| A49G | -1.5 natural log |
| L38W | -1.54 natural log |
| S47A | -1.46 natural log |
| A40F | -1.56 natural log |
| E33T | -1.21 natural log |
| L38N | -1.46 natural log |
| R30V | -1.47 natural log |
| I28N | -1.53 natural log |

Block 6
Target: TAR DNA-binding protein 43, full length, His tag (TARDBP, Homo sapiens, UniProt Q13148, residues 1-414)
Technique: RNA Bind-n-Seq
Form: RNA
Medium: in vitro
Concentration: 20 nM
Notes: 6-mer, flanks averaged, single round
Added: 150 mM KCl
Baseline: input library
Reading: higher = stronger binding
| Oligonucleotide | 6-mer enrichment (R) |
| --- | --- |
| GGUUAC | 0.839 |
| UCACCA | 0.63 |
| UAAAGG | 1.02 |
| GGGUCC | 1.87 |
| GAUCCU | 0.613 |
| AGCAAC | 0.676 |
| UACCCC | 0.637 |
| CAGCCG | 0.859 |
| CUGCGA | 0.794 |
| UUUUUU | 0.948 |
| AGUCAA | 0.625 |
| CGCAAU | 0.655 |
| GAAGCA | 0.894 |
| CGCGGC | 1.47 |
| AAGUCA | 0.601 |
| AAUCGA | 0.599 |
| AACUAA | 0.663 |
| GAAAAG | 1.08 |
| CCACGU | 0.678 |

Repeated from above (block 1):
| Oligonucleotide | fitted relative affinity [z-score] |
| --- | --- |
| GACGGTATCGGATATCGGGACGTGCTA | 2.87 |
| GATGATTTCGGGTTTCGAGACGTGCTA | 2.55 |
| TTAGCTTTCGGGTATCGGTTAGTGCTA | 2.2 |
| CACGGTTTCGGGTATCGGGACGTGCTA | 4.09 |
| TCATGTCCCTATTTAAGACTGTGCTAG | 1.56 |
| TTAGGTTTCGATCTCGGTTAGTGCTAG | 7.59 |
| GTTGAGTTCTGTTGCAAAGGGTGCTAG | -0.201 |
| GACGCACTGCTTCTCCTGACGTGCTAG | -0.353 |
| GCCGGTTTCGGTATCGGGACGTGCTAG | 8.46 |
| GACGAATTCAGTATCGAGACGTGCTAG | 1.18 |
| CGGATGATCTCTCTGGGCAAGTGCTAG | 0.0102 |
| TCTGTTTTCGCTTTCTTTAAGTGCTAG | 4.74 |
| TCAAGTATTTTTTTCCAACTGTGCTAG | 0.791 |
| TTAGGTCTAGGTATCGGTTAGTGCTAG | 1.07 |
| TTAGGTCTCGGTCTCGGTAAGTGCTAG | 1.31 |
| GTCTGTTTCCTCTTTCTTTGGTGCTAG | 5.19 |
